Measured values collected from several papers.
A part holds a random share of what one study measured. Substitutions count along the parent as printed.

Sample 1 — method: universal PBM; molecule type: double-stranded DNA, one strand shown; medium: in vitro; tested at: 600 nM; direction: higher = stronger binding
Target: Sal-like protein 4, full length isoform A (SALL4, Homo sapiens, UniProt Q9UJQ4, residues 1-1053)
Sequence of UniProt Q9UJQ4 (whole entry, looked up): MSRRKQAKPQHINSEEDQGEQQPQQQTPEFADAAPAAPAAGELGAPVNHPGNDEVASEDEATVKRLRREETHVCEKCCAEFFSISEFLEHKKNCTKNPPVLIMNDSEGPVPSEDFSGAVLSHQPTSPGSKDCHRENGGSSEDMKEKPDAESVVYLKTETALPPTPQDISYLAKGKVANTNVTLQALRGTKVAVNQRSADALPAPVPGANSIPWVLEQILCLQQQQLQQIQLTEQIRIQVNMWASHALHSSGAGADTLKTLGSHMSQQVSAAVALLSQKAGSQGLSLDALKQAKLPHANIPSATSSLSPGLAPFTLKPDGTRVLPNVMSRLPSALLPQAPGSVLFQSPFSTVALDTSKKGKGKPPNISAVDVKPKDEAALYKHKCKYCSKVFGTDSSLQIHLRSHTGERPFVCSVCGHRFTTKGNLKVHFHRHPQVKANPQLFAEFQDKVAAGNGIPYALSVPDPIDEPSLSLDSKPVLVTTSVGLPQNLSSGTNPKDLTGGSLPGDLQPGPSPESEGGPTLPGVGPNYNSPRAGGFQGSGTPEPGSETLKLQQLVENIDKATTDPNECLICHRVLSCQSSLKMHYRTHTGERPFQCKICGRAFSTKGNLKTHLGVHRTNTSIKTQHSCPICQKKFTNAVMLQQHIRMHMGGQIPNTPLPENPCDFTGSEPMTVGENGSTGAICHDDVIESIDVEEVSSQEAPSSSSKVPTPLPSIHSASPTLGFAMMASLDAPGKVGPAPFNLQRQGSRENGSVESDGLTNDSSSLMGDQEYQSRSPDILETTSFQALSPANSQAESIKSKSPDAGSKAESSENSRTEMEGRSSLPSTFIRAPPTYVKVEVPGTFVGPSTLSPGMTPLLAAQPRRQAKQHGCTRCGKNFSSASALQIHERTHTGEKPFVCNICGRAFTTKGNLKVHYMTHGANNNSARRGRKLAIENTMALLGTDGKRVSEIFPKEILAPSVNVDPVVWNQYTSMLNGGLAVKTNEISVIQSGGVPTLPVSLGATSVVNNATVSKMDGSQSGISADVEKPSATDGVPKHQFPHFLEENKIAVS
Notes: 8-mer, flanks averaged, mean of replicates
Sequence	E-score
CGATACCG	-0.177
AGCCAGAC	-0.23
ACAAGTTG	0.0894
GAGGACAA	-0.0362
ATTCGGCA	-0.0202
TATTGCGA	0.176
CATACAAA	0.305
CATTGGTC	-0.123
ATGATTCC	0.276
TCCAGCGA	-0.114
CCCGGCTA	-0.221
CCTTACTC	-0.0443
CAGATCCA	-0.0163

Sample 2 — method: protein-binding microarray; molecule type: double-stranded DNA, one strand shown; medium: in vitro; tested at: 250 nM; notes: 60-bp whole probe; with: salmon DNA 0.4 mg/ml; baseline: random background probes; direction: higher = stronger binding; all sequences stand within: GCCTAGCAC … GTCTTGATTCGCTTGACGCTGCTG
Target: Interferon regulatory factor 7, full length, phosphomimetic (IRF7, Homo sapiens, UniProt Q92985, residues 1-503, S101K/S471D/S472D/S475D/S476D/S477D/S483D/S484D/S487D)
Construct (chain): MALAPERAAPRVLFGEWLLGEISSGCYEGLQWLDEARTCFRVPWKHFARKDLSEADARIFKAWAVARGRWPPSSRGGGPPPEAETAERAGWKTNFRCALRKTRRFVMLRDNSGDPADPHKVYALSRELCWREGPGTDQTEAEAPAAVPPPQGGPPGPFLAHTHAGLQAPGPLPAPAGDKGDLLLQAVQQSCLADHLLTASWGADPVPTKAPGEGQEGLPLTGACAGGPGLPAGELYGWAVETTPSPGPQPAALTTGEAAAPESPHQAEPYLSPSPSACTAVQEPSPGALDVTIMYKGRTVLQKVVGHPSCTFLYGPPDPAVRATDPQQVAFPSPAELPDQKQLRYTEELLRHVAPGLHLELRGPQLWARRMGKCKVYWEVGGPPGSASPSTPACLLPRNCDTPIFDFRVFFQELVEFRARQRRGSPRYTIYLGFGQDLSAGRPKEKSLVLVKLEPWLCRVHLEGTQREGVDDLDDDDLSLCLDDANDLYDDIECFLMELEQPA
Sequence	log fluorescence
TATCAGTAGGTAAGGAAAAGGTGCTAG	-0.132 z-score
GACGGTATCGATATCGGGACGTGCTAG	1.72 z-score
TAACTTTTTTTTTTCCCTGAGTGCTAG	0.499 z-score
GACGATCTCAGACAGGAGACGTGCTAG	-0.323 z-score
GAAGGACTGGGTTTCGGGACGTGCTAG	2.26 z-score
TCAAAATGATTGGTTGAACTGTGCTAG	-0.492 z-score
TTAGGTTTCGGTATCTGTTAGTGCTAG	10.5 z-score
GAAGGTTCCCTTTTCCTGACGTGCTAG	3.77 z-score
TTAAGACTGGGGTATCGGTTAGTGCTA	-0.00674 z-score
TCATTTTTTCATATATAACTGTGCTAG	1.29 z-score

Sample 3 — target: CCNA2, cyclin fold, Cln2 fusion (human); method: yeast growth competition, sequencing; medium: yeast; notes: strong parent motif; baseline: not given; direction: higher = stronger binding
Parent: RB1 docking peptide (human); PKPLKKLRFDIEG
Change	normalised enrichment score
L7V	1.48
D10C	0.314
I11E	1.97
D10M	2.36
F9Y	0.375
K6T	0.873
K5Y	0.833
L7P	0.708
K6V	0.426
E12N	1.85
L7Y	0.106
K5R	1.61
G13Q	2.18
L7H	0.984
L7D	-0.343
L7F	0.0879
K5E	-0.131
R8L	0.912
E12L	1.74

Sample 4 — method: RNA Bind-n-Seq; molecule type: RNA; medium: in vitro; tested at: 100 nM; baseline: input RNA pool; direction: higher = stronger binding
Target: RING finger protein unkempt homolog, zinc fingers 1-6, SBP tag (UNK, Homo sapiens, UniProt Q9C0B0, residues 30-357)
Sequence of UniProt Q9C0B0 (30-357, looked up): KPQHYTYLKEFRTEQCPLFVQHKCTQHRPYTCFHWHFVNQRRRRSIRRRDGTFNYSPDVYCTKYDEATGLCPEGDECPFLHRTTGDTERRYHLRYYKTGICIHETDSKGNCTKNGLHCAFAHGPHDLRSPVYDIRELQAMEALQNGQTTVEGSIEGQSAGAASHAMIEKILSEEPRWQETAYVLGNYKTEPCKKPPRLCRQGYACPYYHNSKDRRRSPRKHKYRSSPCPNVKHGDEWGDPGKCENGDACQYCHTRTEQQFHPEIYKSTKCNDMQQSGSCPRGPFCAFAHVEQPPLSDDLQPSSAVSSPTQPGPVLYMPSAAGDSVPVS
Notes: RNA with constant flanks, vertebrate orthologous sites, ends assumed
All sequences stand within: GGGAGUUCUACAGUCCGACGAUC … CAACAGAGGAUUGAGCAUCA
Sequence	bound/input enrichment
CCUCCUGAACUUCUCUUGCUUUCAAGCUGUGGCUGUUUCAGAUACUGGUUUUAUUUUCUUUGCAGUUUUCCCCUGUUUCCCACCUUUCUCCCCUUCUUUCCAAGGUUUGACUCAUGGAUU	0.774 ratio
CCUUAACUAGAGGUAGUAUAUGUUUCAUAAAGAGGAGUCUUUUUAAUUUUGUUUGUCAUAUAGUAUUUUGGAAUUUGUAUAAUGAGAAUGUUUAGAAGCCAUAUCAAUGGCUUUUUUUAA	0.992 ratio
UGACCAUACAUAUACAAUGUGUAUCAAAUGCUGGUUGUAAAAUUAAACCAUCAUCUAGAAUAGAGUUAAUUUGUUAUAAUCAAGCUACAAAUAGGUUGUCUUAAACCAGAGAUGAUGCAC	0.589 ratio
CCUACAAUAAUGAAAACCUACAGGAAUUUUUUUAUUUUUCAUUUUCCCCUUAAGUAUAUUUAGUAUUUUUCCCCCAGGCAGAUCAUUCUGAGUGUGCGAGUGUGUGUGCACAUGUUACAA	2.83 ratio
UCCCCAUUACCCCUAAAGUAGAACAUUUUUUAAAUUGUGUUGCCACCACUUCUAAAAAUUUAGCAAUAUUAGAAUAGGAUACUAGUGAAGUAAGAAAUUUUGCUUGUUGUUUUGCAAACC	4 ratio
UAAAGAAGAGAUUCCUGUGGUUUCUAAUAUUUAAUUUGCUCUUUUUAAGAUAUUUCAAUCUGCAUUUCUUUAUAGAAAUGGUAUGCUAGCAUUUCUCUCCUAAGGAGGACUAGUCCUCAU	0.542 ratio
UUGUUUUGUACAGGGCAUUCUCUGUACGAAUUUGUUGUGGUUAUAAAACAAUUAGAAAAACAGCUUACAUUUGUAUUUAUUUUCUAUUCCAUACCUCUGCCCCAUGUUUUUUCUCCUCAA	0.481 ratio
CCCUUCGGAGGGGCAGGGGUGGGUAGGCCAGGUCUGCUGACAACAUCCGCCUGCCAUUUUAGCGUUUUUUUUUUUUUUUUUUUUUUUUUUUAAUUUUAACAGUGCCCUUAUUUCCUGUAC	7.4 ratio

Sample 5 — method: protein binding microarray; molecule type: double-stranded DNA, one strand shown; medium: in vitro; tested at: not given; baseline: not given; direction: higher = stronger binding
Target: Histone acetyltransferase KAT6A, both winged helices, GST fusion (KAT6A, Homo sapiens, UniProt Q92794, residues 1-181)
Notes: 8-mer, flanks averaged, mean of 2 arrays, mostly near background
Residues (chain): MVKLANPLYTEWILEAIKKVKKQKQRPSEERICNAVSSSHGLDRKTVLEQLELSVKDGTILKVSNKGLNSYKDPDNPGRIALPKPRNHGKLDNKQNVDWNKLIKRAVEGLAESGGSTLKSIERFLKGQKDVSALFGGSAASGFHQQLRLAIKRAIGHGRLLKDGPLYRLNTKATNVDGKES
Sequence	E-score
AGCACTAA	-0.0848
CTTTTTAA	-0.178
GTTTTGGA	-0.0827
CAGCCGAC	0.23
GGGTACTA	-0.00061
CTCTCGCC	-0.162
GGTATTGA	0.0668
GTTATCAA	-0.167
ACTCTGCG	0.0282
CGCGGGAC	0.294
GTCCTATA	0.0949
AATAGACA	-0.148
CGTAACGC	0.243
CGCGAGAG	0.242
ATGTCGGG	0.14
ACATTAGA	-0.111

Sample 6 — method: DHFR PCA, deep sequencing; medium: yeast; with: (+)-ABA 2500 µM; baseline: wild-type fitted maximum; direction: higher = stronger binding
Target: ABI1, truncated, D143A, DHFR fusion (Arabidopsis thaliana)
Notes: methotrexate growth selection, single substitutions
Parent: PYL1, truncated, DHFR fusion (Arabidopsis thaliana); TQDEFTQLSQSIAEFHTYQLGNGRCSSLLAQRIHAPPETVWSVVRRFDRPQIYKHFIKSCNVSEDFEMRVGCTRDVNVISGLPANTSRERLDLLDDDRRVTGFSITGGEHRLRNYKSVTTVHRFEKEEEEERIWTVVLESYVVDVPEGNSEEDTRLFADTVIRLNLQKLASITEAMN; partner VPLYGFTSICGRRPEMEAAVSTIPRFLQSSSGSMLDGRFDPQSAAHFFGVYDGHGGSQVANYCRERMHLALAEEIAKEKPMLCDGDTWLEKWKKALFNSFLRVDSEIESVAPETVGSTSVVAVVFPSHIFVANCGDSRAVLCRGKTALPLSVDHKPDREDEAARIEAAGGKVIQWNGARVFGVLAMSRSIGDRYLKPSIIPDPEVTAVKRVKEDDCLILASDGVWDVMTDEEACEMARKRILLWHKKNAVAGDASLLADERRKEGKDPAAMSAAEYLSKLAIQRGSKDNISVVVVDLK
Change	relative binding score
S59C	95.9%
F157P	-10.7%
F5N	88.2%
L169A	45.4%
P36Q	94.7%
K58Q	91.8%
S26D	84.3%
N77E	101%
S117W	11.4%
L164N	98.2%
S150T	94.9%
K116F	70.6%
V62F	92.8%
A175G	96.2%
N114P	39.2%
N177D	105%
S171T	93.8%

Sample 7 — method: RNA Bind-n-Seq; molecule type: RNA; medium: in vitro; tested at: 365 nM; baseline: no-protein control; direction: higher = stronger binding
Target: RNA binding protein fox-1 homolog 2, RRM domain, GST-SBP tag (RBFOX2, Homo sapiens, UniProt O43251-10, residues 100-194)
Notes: natural RNA segment, single round, ends assumed
All sequences stand within: GGGAGUUCUACAGUCCGACGAUC … UGGAAUUCUCGGGUGCCAA
Residues (chain): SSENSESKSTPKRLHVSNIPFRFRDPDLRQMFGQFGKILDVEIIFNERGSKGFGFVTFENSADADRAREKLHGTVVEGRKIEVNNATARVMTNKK
Sequence	RBNS enrichment (R)
CUUGGCUCCAGCCCCUUCUCCUACCACCUCUAUUUAUUAUACAUCAGGGUUGGAGUGGGGGUUGGUCCCUCAGGGGCUCAAGUUCCUUCUCUCAGCUGGGACAGGAGGUG	0.223
AUCAGGUGUGAACUUGGCUGCUAGCGUAUGAACCCAGAUGUGACGCAGAGCCUCUGCAGCGAUCUUCUCCAACUGUUCUGUAAUCUCUACUCAACAAUAAGGUUUUAGUU	0.771
AUUUGUAGAAAGGAGCUCACCAGCUCUGUCAGUGUUUAGUUUCUUCAUCUAUUAAACAGGGUUGGUUUUUCUGGUUGCUAGGGAGACUUAUAGUAAUACAACUUACUAUU	0.294
CCCCAGUCCCCACAGUGGCCCCACCUCUGGGCCCUGCACCAGAGCCCUUCUGUGUCACGGCGGGCUGUGCACCCAUGCACACACCUACGCACACACAACACUCCGCACUG	0.639
UAUUAUUAUUAUAAUUAUUUUUUUGCGUGAAAGUGUUACAUAUUCUUUCACUUGUAUGUACAGAGAGGUUUUUCUGAAUAUUUAUUUUAAGGGUUAAAUCACUUUUGCUU	1.24
AGCUGAGAGCCAGAAAUGCAGAUUCAAUUUGGAAGGAGAUGGGAUAGCUGAAGAACUUACCACGUCCAUGACUGUGCCCUGACUCAAGACCGUAUCAUGUGGUGGCUUUA	0.499
UAAUAGAUGAAGAGGUCUUAUUCAGAUGCUUCAUGUCCAUUUUACAUUACCCAUCUACUGUCGCAUGGUAGGAUAGCUUUUUGUCUCUGAAUAUGUGAAUAACUUGACUU	1.37
CCAGCUGUAUUAUGUACUGUACUGUACUAGGAGUUCCCUAGUUUGCUAGGUGAGUUUCAUUCUGGAAAAGGAGAAAGAUAGUGAUGUCUAGAUGCCUGUAGCCUGUGGGG	0.839
CACCAAAUAUCUCGCAACUUUAUUUCAUCUGGUGUAAAUCUGAACAUCAACAUAGGAAAACUGUCAUGAGAAAAUGAAAAAGCAUAAACACAGAAGCAACGAGAAAUGUG	1.43
GUGUUUUAUUUGCCAUGUAUCAUCUUUUGUUAUCAAGAGAAGUGUAUGAUGCUUGCUUUAUGCCAUAGCCAUCUAUAUUGUAAUUUAUCUAUACAAUUAAACAAAUUUAA	0.542
AAGGGCAGGACCAAUGGCUGAGCCUCGUGUCCAGACUCAGAGGGCUGGAUUUUGGUUCCCUUGUAAAGACAGAGUGAAUUUCAGUAUAAAGAUCACCCGUUGUAUUCACC	0.884
AGUAAUACUAAUUCACAGAGUAUUGUAAAUGGUGGAUGACAAAAGAAAAUCUGCUCUGUGGAAAGAAAGAACUGUCUCUACCAGGGUCAAGAGCAUGAACGCAUCAAUAG	11.2

Excerpt of the above (sample 3):
Change	normalised enrichment score
R8L	0.912
F9Y	0.375
K5E	-0.131
G13Q	2.18
L7D	-0.343
D10M	2.36
L7Y	0.106
L7F	0.0879
K5R	1.61
E12N	1.85
I11E	1.97
L7P	0.708
E12L	1.74
